Published values collected from several papers.
Numbered parts are unrelated; each lists some results of a single study. Changes are numbered by the printed parent chain.

Sample 1 — technique: protein binding microarray; molecule type: double-stranded DNA, one strand shown; matrix: in vitro; concentration: not given; baseline: not given; direction: higher = stronger binding
Target: Histone acetyltransferase KAT6A, winged helix 1, GST fusion (KAT6A, Homo sapiens, UniProt Q92794, residues 1-85)
Setting: 8-mer, flanks averaged, mean of 2 arrays, mostly near background
Construct (chain): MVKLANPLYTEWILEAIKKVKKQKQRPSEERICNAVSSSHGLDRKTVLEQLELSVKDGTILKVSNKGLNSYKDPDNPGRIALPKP
The E-score of `CCGCGGTC` is reported as 0.413.
For `AGGCGATG`, the E-score was -0.0276.
With `CTTGTGCC` the E-score was -0.14.
`AAGCACCC` gave an E-score of -0.0692.
For `CCTAGTGC`, the E-score was 0.0327.
`ACCACTGC` has an E-score of -0.0627.
`AAGGGAGT` has an E-score of -0.152.
With `ACTGACCT` the E-score was -0.211.
The E-score of `AGGTTAAA` is reported as -0.118.
`CTCCAAAA` gave an E-score of -0.156.
`AGTCGCAA` has an E-score of 0.0212.

Sample 2 — technique: DHFR PCA, deep sequencing; matrix: yeast; with: (+)-ABA 0 µM; baseline: wild-type fitted maximum; direction: higher = stronger binding
Target: ABI1, truncated, D143A, DHFR fusion (Arabidopsis thaliana)
Setting: methotrexate growth selection, single substitutions
Starting sequence: PYL1, truncated, DHFR fusion (Arabidopsis thaliana); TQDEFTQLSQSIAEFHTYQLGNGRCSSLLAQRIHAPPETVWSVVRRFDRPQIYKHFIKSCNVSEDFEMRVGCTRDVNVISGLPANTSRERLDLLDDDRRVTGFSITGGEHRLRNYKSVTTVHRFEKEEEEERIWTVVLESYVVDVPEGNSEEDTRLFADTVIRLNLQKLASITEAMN; partner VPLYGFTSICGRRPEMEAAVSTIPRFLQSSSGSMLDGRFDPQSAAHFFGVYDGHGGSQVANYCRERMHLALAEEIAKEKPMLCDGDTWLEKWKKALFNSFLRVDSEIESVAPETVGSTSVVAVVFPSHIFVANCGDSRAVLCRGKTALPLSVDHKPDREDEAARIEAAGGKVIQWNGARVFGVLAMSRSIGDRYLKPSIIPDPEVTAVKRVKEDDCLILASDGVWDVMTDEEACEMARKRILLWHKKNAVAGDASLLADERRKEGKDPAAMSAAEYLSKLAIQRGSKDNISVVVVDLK
Under “relative binding score”, `A175H` is recorded as 9.88%.
`V43K` — result for “relative binding score”: -4.26%.
For `D144F`, “relative binding score” read -21.1%.
`G81W` — result for “relative binding score”: 2.92%.
`D65C` — result for “relative binding score”: 8.33%.
`Q167S`: “relative binding score” 11.4%.

Sample 3 — technique: RNA Bind-n-Seq; molecule type: RNA; matrix: in vitro; concentration: 365 nM; baseline: no-protein control; direction: higher = stronger binding
Target: RNA binding protein fox-1 homolog 2, RRM domain, GST-SBP tag (RBFOX2, Homo sapiens, UniProt O43251-10, residues 100-194)
Setting: natural RNA segment, single round, ends assumed
For `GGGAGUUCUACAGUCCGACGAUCGUGGCCUCUCUGUGUGCCCACAUGAUGCAAAGGGGUCAUGUACUAUGCCCUGGACAAAGAAGUAUGUUUUGCCUAUGUCCCCAUACCAGGACCUUCUUUCAGAACGAGGGUGGAAUUCUCGGGUGCCAA`, “RBNS enrichment (R)” read 0.738.
`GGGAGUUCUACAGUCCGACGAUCAAGACACAAGAGUGACAUCUGAUCCUAGCACGGGGCCUGUUGAUCCAUUGCCUGGACUGAGCUGUGAAACUGGACGCGGUUUUGGUUUUUUGUUUUGUGUUUCUUUUUUCUGGAAUUCUCGGGUGCCAA`: “RBNS enrichment (R)” 2.67.
`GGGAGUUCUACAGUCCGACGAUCGAUUUGCUAAAUGUGGUCUUUGCCAACUAAAAUCUGAGAUGCAGCUUUAGACCCUGACACGUGGAUGUUCUUCUGCAGUCUUGUCUGCUAAGUUUUAAAUAAAGUCAUGAUGGAAUUCUCGGGUGCCAA` — result for “RBNS enrichment (R)”: 0.444.
`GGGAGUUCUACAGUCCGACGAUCUACUUCCAGGCUGCAAGGUUUUGAAAUUUUCUGUACAGUUUGUGAGGACAUUUGCACUUUGCCACUCAAUGUCGUACCUCGGUUCACUGUUUGUUUUUGAAUGCCCUGUUUGGAAUUCUCGGGUGCCAA`: “RBNS enrichment (R)” 1.15.
For `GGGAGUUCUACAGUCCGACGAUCUGGACCACUGAGAGCCACAGGACCGUUUUGGGGCUGACCUGUCUUAUUACGUAUGUACUUCUAGGUUGCAAGGUUUUGAAAUUUUCUGUACAGUUUGUGAGGACCUUUGCUGGAAUUCUCGGGUGCCAA`, “RBNS enrichment (R)” read 0.559.
For `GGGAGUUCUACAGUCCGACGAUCUUUUUUUUUCUUUUGUUAGAGGAGAGCUUGAUGUGAUUAUCUUCAAACCCACCAAACCAACAGGAUAAUUGACAAAUAAACGCCAUAGGCUAGGCUGAACUGUAUGUUACUGGAAUUCUCGGGUGCCAA`, “RBNS enrichment (R)” read 0.508.
For `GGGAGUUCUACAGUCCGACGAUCUUUUACCUUAAAUCUGCCUUUGUUUCUAAAGGUAGAUCAUCUUGAAUAUUUGCUUAAAAUUGCUAGUGAUUUCAUUACCAAGUUACUUGAAAAAAUGUUCUAUAUGCAUUUGGAAUUCUCGGGUGCCAA`, “RBNS enrichment (R)” read 0.772.
For `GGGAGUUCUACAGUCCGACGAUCAUAUGGCAAUUCAUAGUUGAGCUGUGUUGGCUUGAGGGAUGCUGCUGCUAAGUAGGGUGGACUGGGCAAAGCAAUGAACUUUCAGGCAUUCGAGCUACUUCAUCUGCAUAUGGAAUUCUCGGGUGCCAA`, “RBNS enrichment (R)” read 0.469.
`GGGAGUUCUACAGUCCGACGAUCAUGCCGCAGUUGGACAGCAUAGGACGGCUUGGUUCUGUUUCAUUGUGUUUGACAAUGUUGCAGUUUAAAUGAUAAUGUUUAAAUCAAUUGGUACUUGCCUGUAGUGUUAAUGGAAUUCUCGGGUGCCAA` — result for “RBNS enrichment (R)”: 2.59.

Other studies, line by line
The fold induction of `PhoQ, residues 284 288 289 292 302 303 QWQEDG` is reported as 16.9 (PhoP, residues 12 14 15 18 19 LYFRQ (Escherichia coli, UniProt P23836); Sort-seq, refers to: YFP reporter; E. coli; PhoQ-PhoP variant library, with: 10 µM Mg2+; baseline: high Mg2+ state, higher = stronger signaling).

Repeated from above (sample 2):
`V43K` — result for “relative binding score”: -4.26%.
For `D144F`, “relative binding score” read -21.1%.
`G81W` — result for “relative binding score”: 2.92%.
